Measured values of several laboratories.
Every numbered part comes from another study and shows a few of its results, in no order.
Chain of UniProt Q00535 (whole entry, looked up): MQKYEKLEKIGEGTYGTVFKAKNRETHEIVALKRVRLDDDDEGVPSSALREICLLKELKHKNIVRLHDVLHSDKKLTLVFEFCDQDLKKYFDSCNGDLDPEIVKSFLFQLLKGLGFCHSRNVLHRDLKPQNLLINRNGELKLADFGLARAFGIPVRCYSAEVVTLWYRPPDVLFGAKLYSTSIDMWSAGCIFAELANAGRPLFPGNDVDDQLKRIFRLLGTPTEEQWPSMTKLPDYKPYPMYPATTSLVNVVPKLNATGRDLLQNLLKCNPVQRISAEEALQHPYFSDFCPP
Chain of UniProt P42336 (whole entry, unmodified, looked up): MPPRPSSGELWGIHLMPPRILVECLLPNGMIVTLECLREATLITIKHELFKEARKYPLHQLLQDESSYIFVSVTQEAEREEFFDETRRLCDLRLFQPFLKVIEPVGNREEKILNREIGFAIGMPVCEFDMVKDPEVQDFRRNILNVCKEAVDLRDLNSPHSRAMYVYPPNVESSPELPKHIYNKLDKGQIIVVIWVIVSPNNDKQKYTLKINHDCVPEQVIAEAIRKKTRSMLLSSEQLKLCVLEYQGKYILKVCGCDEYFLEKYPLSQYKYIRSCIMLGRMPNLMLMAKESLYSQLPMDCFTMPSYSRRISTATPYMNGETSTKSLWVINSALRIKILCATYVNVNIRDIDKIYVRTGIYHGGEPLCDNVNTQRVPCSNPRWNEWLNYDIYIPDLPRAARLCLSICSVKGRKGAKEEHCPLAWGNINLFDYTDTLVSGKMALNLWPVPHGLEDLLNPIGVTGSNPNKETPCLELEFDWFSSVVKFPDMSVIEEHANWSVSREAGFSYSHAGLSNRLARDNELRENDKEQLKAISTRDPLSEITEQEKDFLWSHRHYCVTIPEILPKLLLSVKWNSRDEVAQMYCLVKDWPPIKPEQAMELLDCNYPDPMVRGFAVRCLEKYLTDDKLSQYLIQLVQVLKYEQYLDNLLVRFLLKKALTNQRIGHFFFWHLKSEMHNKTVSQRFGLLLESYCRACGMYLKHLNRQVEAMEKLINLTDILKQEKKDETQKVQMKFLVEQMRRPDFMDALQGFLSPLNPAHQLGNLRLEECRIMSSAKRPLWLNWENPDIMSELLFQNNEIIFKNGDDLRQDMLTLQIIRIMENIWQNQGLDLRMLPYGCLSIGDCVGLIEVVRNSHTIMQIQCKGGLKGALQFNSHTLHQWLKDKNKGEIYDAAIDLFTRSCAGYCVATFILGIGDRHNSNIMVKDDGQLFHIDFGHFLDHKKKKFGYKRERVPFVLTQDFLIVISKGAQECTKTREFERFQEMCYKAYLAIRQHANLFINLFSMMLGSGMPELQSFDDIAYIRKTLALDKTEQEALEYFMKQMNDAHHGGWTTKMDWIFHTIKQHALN
Chain of UniProt P07949 (whole entry, unmodified, looked up): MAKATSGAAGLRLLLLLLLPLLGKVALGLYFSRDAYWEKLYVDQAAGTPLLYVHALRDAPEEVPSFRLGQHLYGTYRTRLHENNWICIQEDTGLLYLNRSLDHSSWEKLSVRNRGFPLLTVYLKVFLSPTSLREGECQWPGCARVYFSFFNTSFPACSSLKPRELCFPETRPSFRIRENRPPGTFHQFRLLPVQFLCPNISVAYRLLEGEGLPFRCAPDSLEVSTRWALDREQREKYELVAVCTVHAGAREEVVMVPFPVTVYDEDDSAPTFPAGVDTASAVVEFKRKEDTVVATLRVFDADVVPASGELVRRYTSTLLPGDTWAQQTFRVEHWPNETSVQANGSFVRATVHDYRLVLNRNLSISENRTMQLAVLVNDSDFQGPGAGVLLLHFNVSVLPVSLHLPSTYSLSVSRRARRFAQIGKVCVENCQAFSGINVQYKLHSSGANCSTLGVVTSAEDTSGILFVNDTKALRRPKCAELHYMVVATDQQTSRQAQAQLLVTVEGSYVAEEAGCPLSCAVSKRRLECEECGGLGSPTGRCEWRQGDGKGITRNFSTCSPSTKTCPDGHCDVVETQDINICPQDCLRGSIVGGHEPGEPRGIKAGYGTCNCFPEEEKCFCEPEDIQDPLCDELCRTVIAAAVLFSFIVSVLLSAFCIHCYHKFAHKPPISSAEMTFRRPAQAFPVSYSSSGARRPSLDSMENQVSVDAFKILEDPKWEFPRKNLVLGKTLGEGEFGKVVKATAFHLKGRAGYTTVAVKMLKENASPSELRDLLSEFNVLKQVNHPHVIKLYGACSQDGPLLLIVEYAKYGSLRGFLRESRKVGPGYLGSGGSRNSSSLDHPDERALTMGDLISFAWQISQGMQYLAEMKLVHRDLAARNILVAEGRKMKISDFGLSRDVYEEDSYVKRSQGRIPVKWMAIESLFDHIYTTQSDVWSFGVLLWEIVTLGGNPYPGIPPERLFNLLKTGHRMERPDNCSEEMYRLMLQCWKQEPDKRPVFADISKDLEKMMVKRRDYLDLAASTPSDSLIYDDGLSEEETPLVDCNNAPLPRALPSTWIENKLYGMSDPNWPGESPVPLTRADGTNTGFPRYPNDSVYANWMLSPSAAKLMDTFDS

Set 1
Target: DNA polymerase theta, ATPase domain (POLQ, Homo sapiens, UniProt O75417)
Chain of UniProt O75417 (whole entry, unmodified, looked up): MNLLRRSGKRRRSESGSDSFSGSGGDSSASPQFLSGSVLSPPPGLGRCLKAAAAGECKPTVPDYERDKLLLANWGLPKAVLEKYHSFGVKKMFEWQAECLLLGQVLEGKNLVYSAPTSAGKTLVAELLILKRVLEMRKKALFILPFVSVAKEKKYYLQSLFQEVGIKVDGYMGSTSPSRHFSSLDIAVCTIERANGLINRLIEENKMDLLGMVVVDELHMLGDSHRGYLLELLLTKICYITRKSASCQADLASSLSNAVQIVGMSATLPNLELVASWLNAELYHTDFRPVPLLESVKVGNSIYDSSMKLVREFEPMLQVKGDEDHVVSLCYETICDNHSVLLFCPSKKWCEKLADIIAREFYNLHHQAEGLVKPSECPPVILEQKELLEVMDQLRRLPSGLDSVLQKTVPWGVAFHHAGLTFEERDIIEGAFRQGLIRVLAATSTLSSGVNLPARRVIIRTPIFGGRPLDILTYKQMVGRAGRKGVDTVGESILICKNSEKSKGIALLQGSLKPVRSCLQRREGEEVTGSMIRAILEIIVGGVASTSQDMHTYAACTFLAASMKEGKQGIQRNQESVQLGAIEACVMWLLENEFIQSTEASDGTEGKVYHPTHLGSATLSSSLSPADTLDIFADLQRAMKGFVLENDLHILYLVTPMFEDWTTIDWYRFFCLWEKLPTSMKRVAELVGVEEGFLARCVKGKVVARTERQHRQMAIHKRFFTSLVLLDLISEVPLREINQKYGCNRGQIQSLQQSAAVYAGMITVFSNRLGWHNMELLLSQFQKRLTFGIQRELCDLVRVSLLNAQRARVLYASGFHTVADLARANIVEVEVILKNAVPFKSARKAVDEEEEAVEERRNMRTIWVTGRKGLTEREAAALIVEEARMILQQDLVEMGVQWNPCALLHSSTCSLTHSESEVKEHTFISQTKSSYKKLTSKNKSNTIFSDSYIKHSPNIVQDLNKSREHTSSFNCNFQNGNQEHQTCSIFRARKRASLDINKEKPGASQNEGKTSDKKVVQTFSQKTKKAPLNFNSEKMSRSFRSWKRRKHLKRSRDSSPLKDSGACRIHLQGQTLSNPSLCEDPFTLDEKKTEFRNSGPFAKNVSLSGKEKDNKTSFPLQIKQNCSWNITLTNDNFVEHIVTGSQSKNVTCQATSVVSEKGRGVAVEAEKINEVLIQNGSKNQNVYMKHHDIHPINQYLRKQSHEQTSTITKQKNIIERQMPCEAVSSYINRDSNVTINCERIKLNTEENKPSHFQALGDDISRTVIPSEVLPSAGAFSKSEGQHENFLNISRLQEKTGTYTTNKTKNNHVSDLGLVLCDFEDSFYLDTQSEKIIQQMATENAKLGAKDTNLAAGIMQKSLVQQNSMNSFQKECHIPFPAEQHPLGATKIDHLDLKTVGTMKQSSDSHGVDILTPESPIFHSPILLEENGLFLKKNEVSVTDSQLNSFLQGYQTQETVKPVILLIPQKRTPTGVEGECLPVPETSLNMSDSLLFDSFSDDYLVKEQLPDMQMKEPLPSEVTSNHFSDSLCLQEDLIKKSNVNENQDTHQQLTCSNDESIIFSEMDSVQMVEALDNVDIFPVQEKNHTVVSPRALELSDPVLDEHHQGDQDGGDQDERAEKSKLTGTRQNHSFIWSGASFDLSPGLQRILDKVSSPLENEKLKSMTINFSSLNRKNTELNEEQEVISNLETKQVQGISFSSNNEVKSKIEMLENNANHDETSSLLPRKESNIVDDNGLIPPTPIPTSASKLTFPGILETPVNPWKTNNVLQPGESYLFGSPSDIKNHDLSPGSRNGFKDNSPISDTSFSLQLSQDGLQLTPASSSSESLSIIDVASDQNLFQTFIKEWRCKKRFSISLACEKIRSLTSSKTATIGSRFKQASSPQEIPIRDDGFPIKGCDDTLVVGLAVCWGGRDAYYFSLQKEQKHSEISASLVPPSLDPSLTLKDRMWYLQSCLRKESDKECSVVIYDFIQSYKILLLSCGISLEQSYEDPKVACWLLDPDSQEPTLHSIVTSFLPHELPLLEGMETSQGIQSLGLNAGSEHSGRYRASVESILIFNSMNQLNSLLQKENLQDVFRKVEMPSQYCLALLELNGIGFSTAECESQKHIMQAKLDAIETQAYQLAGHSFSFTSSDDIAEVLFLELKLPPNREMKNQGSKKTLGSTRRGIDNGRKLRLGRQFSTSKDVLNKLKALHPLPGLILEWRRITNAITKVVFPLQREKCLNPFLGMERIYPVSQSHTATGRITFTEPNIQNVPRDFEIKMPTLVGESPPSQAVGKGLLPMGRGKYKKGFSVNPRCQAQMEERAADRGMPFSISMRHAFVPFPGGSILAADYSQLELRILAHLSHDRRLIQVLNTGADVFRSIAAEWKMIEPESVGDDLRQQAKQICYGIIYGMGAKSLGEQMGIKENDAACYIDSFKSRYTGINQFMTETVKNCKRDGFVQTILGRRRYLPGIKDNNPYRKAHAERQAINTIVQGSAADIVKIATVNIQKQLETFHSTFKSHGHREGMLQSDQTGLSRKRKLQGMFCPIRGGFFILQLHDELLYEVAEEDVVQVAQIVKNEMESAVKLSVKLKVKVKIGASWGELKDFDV
Effect on: enzyme activity
Mode: inhibitor
Tested at: 77 µM
`Clc1ccc(COC(Cn2ccnc2)c2ccc(Cl)cc2Cl)cc1` (stereo not shown) has a remaining activity of 102%.
`O=c1n(CCCN2CCN(c3cccc(Cl)c3)CC2)nc2ccccn12` gave a remaining activity of 101%.
`C[C@]12C=CC(=O)C=C1CC[C@@H]1C2=CC[C@]2(C)[C@@H](C(=O)CN3CCN(c4cc(N5CCCC5)nc(N5CCCC5)n4)CC3)CC[C@@H]12` has a remaining activity of 110%.
With `O=C(Nc1cc(C(F)(F)F)cc(C(F)(F)F)c1)c1cc(Cl)ccc1O` the remaining activity was 115%.
For `C=C(NC(=O)C(=C)NC(=O)c1csc(C2=N[C@@H]3c4csc(n4)[C@H]4NC(=O)c5csc(n5)[C@H]([C@](C)(O)[C@@H](C)O)NC(=O)[C@H]5CSC(=N5)/C(=C/C)NC(=O)[C@H]([C@@H](C)O)NC(=O)c5csc(n5)[C@]3(CC2)NC(=O)[C@H](C)NC(=O)C(=C)NC(=O)[C@H](C)NC(=O)[C@H]([C@@H](C)CC)N[C@@H]2C=Cc3c([C@H](C)O)cc(nc3[C@H]2O)C(=O)O[C@@H]4C)n1)C(N)=O`, the remaining activity was 102%.
The remaining activity of `CC(C)NC[C@H](O)COc1cccc2[nH]ccc12` is reported as 105%.
With `CC(C)OC(=O)[C@H](C)N[P@](=O)(OC[C@H]1O[C@@H](n2ccc(=O)[nH]c2=O)[C@](C)(F)[C@@H]1O)Oc1ccccc1` the remaining activity was 100%.
With `CN(C)CCN1C(=O)c2cccc3cc(N)cc(c23)C1=O` the remaining activity was 93%.
`CCc1cnn2c(NCc3ccc[n+]([O-])c3)cc(N3CCCC[C@H]3CCO)nc12` gave a remaining activity of 94.2%.
`CN1CCN(CC(=O)N2c3ccccc3C(=O)Nc3cccnc32)CC1` has a remaining activity of 102%.

Set 2
SMILES: FC(F)(F)c1ccc2c(c1)nc(-c1cccnc1)n2C1CC1
Effect on: cell-free assay
Technique: competition with immobilised ligand
Tested at: 1 µM
For LIM domain kinase 1 (LIMK1, Homo sapiens, UniProt P53667): remaining binding read 100%.
For IGF1R (Homo sapiens, UniProt P08069): remaining binding read 100%.
Tyrosine-protein kinase ABL1, non-phosphorylated (ABL1, Homo sapiens, UniProt P00519, T315I) — remaining binding: 100%.
The remaining binding was 92% (EGFR (Homo sapiens, UniProt P00533, G719C)).
It gave 100% for remaining binding (GRK2 (Homo sapiens, UniProt P25098)).
SRPK3 (Homo sapiens, UniProt Q9UPE1) — remaining binding: 100%.
For PRKACA (Homo sapiens, UniProt P17612): remaining binding read 100%.
It gave 100% for remaining binding (CSNK1G1 (Homo sapiens, UniProt Q9HCP0)).
GSK3A (Homo sapiens, UniProt P49840) — remaining binding: 100%.
PIK3CA (Homo sapiens, UniProt P42336, E545A) — remaining binding: 90%.
It gave 97% for remaining binding (PIK3CB (Homo sapiens, UniProt P42338)).
It gave 91% for remaining binding (FLT4 (Homo sapiens, UniProt P35916)).
SYK (Homo sapiens, UniProt P43405) — remaining binding: 100%.
MAP4K3 (Homo sapiens, UniProt Q8IVH8) — remaining binding: 100%.
The remaining binding was 100% (CDK4 (Homo sapiens, UniProt P11802)).
ALK (Homo sapiens, UniProt Q9UM73) — remaining binding: 100%.
For CSF1R (Homo sapiens, UniProt P07333): remaining binding read 100%.
CDK11B (Homo sapiens, UniProt P21127) — remaining binding: 100%.
It gave 100% for remaining binding (MAPK3 (Homo sapiens, UniProt P27361)).
It gave 100% for remaining binding (RET (Homo sapiens, UniProt P07949, V804M)).
PTK6 (Homo sapiens, UniProt Q13882) — remaining binding: 100%.
The remaining binding was 100% (PTK2 (Homo sapiens, UniProt Q05397)).
It gave 100% for remaining binding (EPHB3 (Homo sapiens, UniProt P54753)).
For CDK5 (Homo sapiens, UniProt Q00535): remaining binding read 100%.
The remaining binding was 100% (TYRO3 (Homo sapiens, UniProt Q06418)).

Set 3
Target: Cyclin-dependent kinase 5, with p25 (CDK5, Homo sapiens, UniProt Q00535)
Effect on: enzyme activity
Mode: inhibitor
Tested at: 0.5 µM
Reference: control
`O=c1cc(-c2cccc3c2Sc2ccccc2S3)oc(N2CCOCC2)c1` gave a remaining activity of 96.8%.
With `COc1cc2c(cc1OC)-c1[nH]nc(Nc3cccc(F)c3)c1C2` the remaining activity was 89%.
The remaining activity of `Cn1nc2c3c(cccc31)C(=O)c1ccccc1-2` is reported as 92.2%.
`Cc1nc2cc3nc(-c4cccs4)cnc3cc2n1C` gave a remaining activity of 99.3%.
`N#C/C(=C\c1ccc(O)c(O)c1)C(=O)NCc1ccccc1` has a remaining activity of 101%.
With `CCN(CC)C(=O)c1ccc(Nc2nc(OCC3CCCCC3)c3[nH]cnc3n2)cc1` the remaining activity was 77.2%.
For `O=C1C(Cl)=C(N2C(=O)CCC2=O)C(=O)c2ccccc21`, the remaining activity was 87.3%.
`CCN(CC)CCNC(=O)c1c(C)[nH]c(/C=C2\C(=O)Nc3ccc(Cl)cc32)c1C` has a remaining activity of 95.1%.
`O=C(NC(NC(=S)Nc1ccc(F)c([N+](=O)[O-])c1)C(Cl)(Cl)Cl)C(c1ccccc1)c1ccccc1` (stereo not shown) gave a remaining activity of 96.8%.
The remaining activity of `c1ccc(-c2[nH]ncc2-c2ccnc3ccccc23)nc1` is reported as 97.2%.
For `Nc1cccc(-c2cc3c(Oc4cccc(O)c4)ncnc3[nH]2)c1`, the remaining activity was 114%.
The remaining activity of `CCOc1nc(NC(=O)Cc2cc(OC)ccc2OC)cc(N)c1C#N` is reported as 96.8%.
With `COc1cc2ncnc(Nc3ccc(O)c(Br)c3)c2cc1OC` the remaining activity was 98.4%.
For `Cc1cn(-c2cc(NC(=O)c3ccc(C)c(Nc4nccc(-c5cccnc5)n4)c3)cc(C(F)(F)F)c2)cn1`, the remaining activity was 91.7%.
For `Ic1cccc(CSc2nnc(-c3ccncc3)o2)c1`, the remaining activity was 90.5%.
The remaining activity of `CN(C)C[C@H]1CCn2c(c(C3=C(c4cn(C)c5ccccc45)C(=O)NC3=O)c3ccccc32)C1` is reported as 84.7%.
For `N#Cc1c(NC(=O)c2cccc3ccccc23)sc2c1CCCC2`, the remaining activity was 100%.
With `CN([C@@H](Cc1ccc(OS(=O)(=O)c2cccc3cnccc23)cc1)C(=O)N1CCN(c2ccccc2)CC1)S(=O)(=O)c1cccc2cnccc12` the remaining activity was 93.5%.
`O=C(Nc1cccc(Nc2nccc(Nc3cccc(C(F)(F)F)c3)n2)c1)C1CC1` has a remaining activity of 99%.
`c1ccc(-c2cnc(Nc3ccc(OCCN4CCCC4)cc3)s2)cc1` gave a remaining activity of 80.7%.
`COc1cc2ncnc(Nc3cccc(Cl)c3)c2cc1OC` has a remaining activity of 87.3%.
`Cc1cc2ncc(-c3ccccc3)nc2cc1C` has a remaining activity of 96.6%.
The remaining activity of `C[C@@H]1CCN(C(=O)CC#N)C[C@@H]1N(C)c1ncnc2[nH]ccc12` is reported as 100%.

Set 4
Compound: COc1ccc2[nH]c3c4[nH]c5ccc(OC)cc5c4c4c(c3c2c1)C(=O)NC4=O
Effect on: binding
Tested at: 1 µM
The remaining binding was 67% (NEK3 (Homo sapiens, UniProt P51956)).
It gave 28% for remaining binding (PIP4K2C (Homo sapiens, UniProt Q8TBX8)).
AAK1 (Homo sapiens, UniProt Q2M2I8); competition with immobilised ligand — remaining binding: 53%.
ABL1 (Homo sapiens, UniProt P00519, Y253F) — remaining binding: 53%.
The remaining binding was 35% (CIT (Homo sapiens, UniProt O14578); competition with immobilised ligand).
It gave 4.2% for remaining binding (RET (Homo sapiens, UniProt P07949, V804L)).
HIPK3 (Homo sapiens, UniProt Q9H422); competition with immobilised ligand — remaining binding: 44%.
For MAP4K5 (Homo sapiens, UniProt Q9Y4K4); competition with immobilised ligand: remaining binding read 51%.
The remaining binding was 93% (PIK3CA (Homo sapiens, UniProt P42336, I800L)).
The remaining binding was 57% (Tyrosine-protein kinase ABL1, phosphorylated (ABL1, Homo sapiens, UniProt P00519); competition with immobilised ligand).
It gave 9.9% for remaining binding (SIK2 (Homo sapiens, UniProt Q9H0K1); competition with immobilised ligand).
It gave 85% for remaining binding (EPHA5 (Homo sapiens, UniProt P54756); competition with immobilised ligand).

Repeated from above (set 3):
With `COc1cc2c(cc1OC)-c1[nH]nc(Nc3cccc(F)c3)c1C2` the remaining activity was 89%.
`CCN(CC)CCNC(=O)c1c(C)[nH]c(/C=C2\C(=O)Nc3ccc(Cl)cc32)c1C` has a remaining activity of 95.1%.
With `CN([C@@H](Cc1ccc(OS(=O)(=O)c2cccc3cnccc23)cc1)C(=O)N1CCN(c2ccccc2)CC1)S(=O)(=O)c1cccc2cnccc12` the remaining activity was 93.5%.
With `COc1cc2ncnc(Nc3ccc(O)c(Br)c3)c2cc1OC` the remaining activity was 98.4%.
The remaining activity of `CN(C)C[C@H]1CCn2c(c(C3=C(c4cn(C)c5ccccc45)C(=O)NC3=O)c3ccccc32)C1` is reported as 84.7%.
`Cc1cc2ncc(-c3ccccc3)nc2cc1C` has a remaining activity of 96.6%.
`Cc1nc2cc3nc(-c4cccs4)cnc3cc2n1C` gave a remaining activity of 99.3%.
For `Nc1cccc(-c2cc3c(Oc4cccc(O)c4)ncnc3[nH]2)c1`, the remaining activity was 114%.
For `Cc1cn(-c2cc(NC(=O)c3ccc(C)c(Nc4nccc(-c5cccnc5)n4)c3)cc(C(F)(F)F)c2)cn1`, the remaining activity was 91.7%.
